Results from different studies.
Every numbered part comes from another study and shows a few of its results, in no order.

Series 1 — method: protein binding microarray; form: double-stranded DNA, one strand shown; medium: in vitro; tested at: not given; baseline: not given; reading: higher = stronger binding
Target: Histone acetyltransferase KAT6A, winged helix 1, GST fusion (KAT6A, Homo sapiens, UniProt Q92794, residues 1-85)
Setting: 8-mer, flanks averaged, mean of 2 arrays, mostly near background
Construct (chain): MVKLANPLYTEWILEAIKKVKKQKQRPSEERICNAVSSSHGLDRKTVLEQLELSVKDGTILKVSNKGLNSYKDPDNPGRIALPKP
Oligonucleotide	E-score
GTTGCTCA	-0.262
GCCTTGCA	-0.111
GAGTACGA	-0.0392

Series 2 — method: protein-binding microarray; form: double-stranded DNA, one strand shown; medium: in vitro; tested at: 0.8 µM; setting: whole 60-bp probe, no competitor; reading: higher = stronger binding
Target: Centromere-binding protein 1, full length, N-terminal tag (CBF1, Saccharomyces cerevisiae, UniProt P17106, residues 1-351)
Chain of UniProt P17106 (whole entry, looked up): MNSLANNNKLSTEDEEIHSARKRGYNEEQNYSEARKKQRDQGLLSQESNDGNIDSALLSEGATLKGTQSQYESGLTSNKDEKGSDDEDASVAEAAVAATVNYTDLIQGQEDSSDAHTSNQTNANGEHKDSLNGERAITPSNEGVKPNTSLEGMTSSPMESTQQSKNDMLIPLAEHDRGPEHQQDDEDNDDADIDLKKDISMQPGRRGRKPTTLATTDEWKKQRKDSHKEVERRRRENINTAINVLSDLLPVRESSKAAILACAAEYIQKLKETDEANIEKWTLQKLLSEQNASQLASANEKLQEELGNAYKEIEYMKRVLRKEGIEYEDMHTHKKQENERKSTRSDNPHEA
Oligonucleotide	fluorescence intensity [a.u.]
GAAACATCGAGCCACGTGACCATATATGAGAAATAGGTCTTGATTCGCTTGACGCTGCTG	18800
CTACCCGTGTAAAAAAAGGTGATGAAGCAAACATTCGTCTTGATTCGCTTGACGCTGCTG	574
CTACCGCTCATTAGTCACGTGGTCATCACGTGATTCGTCTTGATTCGCTTGACGCTGCTG	37600
GAACGGAATGGTAAACATCAGACGCGCTTTCCGTAGGTCTTGATTCGCTTGACGCTGCTG	505

Series 3 — method: RNA Bind-n-Seq; form: RNA; medium: in vitro; tested at: 365 nM; baseline: no-protein control; reading: higher = stronger binding
Target: RNA binding protein fox-1 homolog 2, RRM domain, GST-SBP tag (RBFOX2, Homo sapiens, UniProt O43251-10, residues 100-194)
Setting: natural RNA segment, single round, ends assumed
All sequences stand within: GGGAGUUCUACAGUCCGACGAUC … UGGAAUUCUCGGGUGCCAA
Residues (chain): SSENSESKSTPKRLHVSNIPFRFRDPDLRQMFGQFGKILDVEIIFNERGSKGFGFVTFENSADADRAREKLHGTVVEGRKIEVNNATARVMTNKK
Oligonucleotide	RBNS enrichment (R)
CAUAUUGCUAACCUCACCAAAAGGUUUCGGGAACUGGAGGAAGUAUUAAUGUACAACUCACCACUUCAUGCCAUAGGAGGCUGAAGUUGACGUUGCCUUUUAAGCCUUUU	0.4
GUUCAGUCUCAUCUAACCUUCCAAUGUCUGAUGUUCCUGCCAAAUUCCUGCCUGAUUCUGGGUCCGUCCUGACCUCCAAAGGUCAGCUUGGUGCUUGAGGUCUCCCUGCU	0.339
AGAGUCCUUCAUCCCAUCUCCAGGGUCUCUGACUUGUCACCCCUCAUCCUGGGAGCGCCAUAGUUCAUCUUUCACCCACACGCCUUCCCUCCAUUCCUGAGCAGGACUAG	0.479
AUUUCAGGAGGACUUAAUGCUAUUUAUGUUGUGCCUCUGCAGGCAAAGCCCUUAAUAAAUAUUUUACAUCCUUUCUAAUGACAAUGAAUGGAAUUAAUCACUCAACAGGU	0.369
GAGGAGUGGUUCAGUUUAGCCCUGCAAGACAUCUAUAACUUGACUGUUUGCUAAACCACAACUCUUUUUGGCUACUUGGGUCAUAGAGACAGCAGAGUUGCUCCAAGUAU	0.312

Further values, each from its own experiment
Substance	target	assay	test system	setting	how to read	quantity	result
PhoQ, residues 284 288 289 292 302 303 SLKLQV	PhoP, residues 12 14 15 18 19 DLLYY (Escherichia coli, UniProt P23836)	Sort-seq, refers to: YFP reporter	E. coli	PhoQ-PhoP variant library, together with: 10 µM Mg2+	baseline: high Mg2+ state, higher = stronger signaling	fold induction	1.18

A few entries again (series 3):
Oligonucleotide	RBNS enrichment (R)
AUUUCAGGAGGACUUAAUGCUAUUUAUGUUGUGCCUCUGCAGGCAAAGCCCUUAAUAAAUAUUUUACAUCCUUUCUAAUGACAAUGAAUGGAAUUAAUCACUCAACAGGU	0.369
GAGGAGUGGUUCAGUUUAGCCCUGCAAGACAUCUAUAACUUGACUGUUUGCUAAACCACAACUCUUUUUGGCUACUUGGGUCAUAGAGACAGCAGAGUUGCUCCAAGUAU	0.312
